Measurements gathered from unrelated publications.
Compare with care: the assays were run in different laboratories. ± gives the spread as reported.

Compound = NC(=O)c1cc(-c2ccoc2)ccc1OCCc1cccc(F)c1; system = PBS; conditions = 30 (unit not given), pH 7.4; measurement = solubility; result = 12 µM
Compound = C=CCN1CCC23c4c5ccc(OC(=O)c6ccc(NCc7cn(CCCCCCCCCCCC)nn7)cc6)c4OC2C(=O)CCC3(O)C1C5 (stereo not shown); system = aqueous buffer; conditions = 72 (unit not given), pH 7.4, 37 °C; measurement = solubility; result = 0.3 µM
Compound = Cn1ccc([C@H](CO)Nc2nc(N3C[C@@H]4C[C@H]3CO4)c3cc(-c4ccccc4)oc3n2)n1; measurement = solubility; result = 380 µM
Compound = Cc1cc(=O)oc2cc(NC(=O)OCc3cc(C(C)C)c(N=[N+]=[N-])c(C(C)C)c3)ccc12; test = HPLC peak area; system = PBS with 2% DMSO; conditions = 0.2 mM; scale = baseline: PBS over DMSO; measurement = solubility ratio; result = 0.96
Compound = O=C(OCc1ccc(F)cc1)N(Cc1cn(-c2cc3ccc(O)cc3oc2=O)nn1)[c-]1cccc1.[Fe+2].c1cc[cH-]c1; test = absorbance; system = PBS; conditions = pH 7.4, 1% DMSO; measurement = solubility; result = 113 ± 11 µM
Compound = NC1CCN(C(=O)Oc2ccc(C3CCCC4(C3)OOC3(O4)C4CC5CC(C4)CC3C5)cc2)CC1 (racemic); system = PBS; conditions = pH 7.4, formate salt; measurement = solubility; result = 3.5 to 11.5 µM
Compound = CC1CCC2C(C)C(OC(=O)CCC(=O)N3CCC(Nc4ccc(S(=O)(=O)NC(=O)c5ccc(N6CCN(CC7=C(c8ccc(Cl)cc8)CC(C)(C)CC7)CC6)cc5Oc5cnc6[nH]ccc6c5)cc4[N+](=O)[O-])CC3)OC3OC4(C)CCC1C32OO4 (stereo not shown); measurement = solubility; result = 1.33 µg/mL
Compound = Cc1n[nH]c(C)c1CCCOc1cc(OCCCCCCNCCOCCOCCn2cc(CNc3ccc(C(=O)O)cc3)nn2)cc(C(=O)O)c1; system = aqueous buffer; conditions = 72 (unit not given), pH 7.4, 37 °C; measurement = solubility; result = ≥ 200 µM
Compound = C[C@]12COc3ccc(OCc4ccccc4)cc3[C@H]1CCN2; system = PBS; conditions = 2 h, pH 7.4; measurement = solubility; result = 263 µM
Compound = CCCCC(CC)COC(=O)CC(C(=O)OCC(CC)CCCC)S(=O)(=O)O.COC(=O)Nc1nc2cc(C(=O)c3ccc(F)cc3)ccc2[nH]1 (stereo not shown); system = buffer; conditions = 24 h, pH 1.2, room temperature, equilibrium; measurement = solubility; result = < 1 µg/mL
Compound = C[C@@H](Oc1ccc2c(c1)[C@H]1CCN[C@@]1(C)CO2)c1ccccc1; system = PBS; conditions = 2 h, pH 7.4; measurement = solubility; result = 273 µM
Compound = NC(=O)c1cc(-c2ccsc2)ccc1OCCc1cc(F)cc(F)c1; system = PBS; conditions = 30 (unit not given), pH 7.4; measurement = solubility; result = < 12 µM
Compound = CSCC[C@H](NC(=O)[C@H](CCC(=O)O)NC(=O)[C@H](Cc1ccc(O)cc1)NC(=O)[C@@H](NC(=O)[C@H](CC(C)C)NC(=O)[C@H](CC(=O)O)NC(=O)[C@H](CC(C)C)NC(C)=O)[C@@H](C)O)C(=O)N[C@@H](CC(C)C)C(=O)N[C@@H](CO)C(=O)N[C@@H](CC(C)C)C(=O)N[C@@H](CCC(N)=O)C(=O)N[C@@H](CCC(N)=O)C(=O)N[C@H](C(=O)N[C@H](C(=O)N[C@@H](CCCCN)C(=O)N[C@@]1(C)CCCC=CCCC[C@@](C)(C(=O)N[C@@H](Cc2ccc(O)cc2)C(N)=O)NC(=O)[C@H](CCC(=O)O)NC(=O)[C@H](CC(N)=O)NC(=O)[C@H](CC(C)C)NC1=O)C(C)C)C(C)C; conditions = concentration not given, 24 (unit not given); measurement = solubility; result = 410 ± 100 µg/mL

A few entries again:
Compound = C[C@]12COc3ccc(OCc4ccccc4)cc3[C@H]1CCN2; system = PBS; conditions = 2 h, pH 7.4; measurement = solubility; result = 263 µM
Compound = C[C@@H](Oc1ccc2c(c1)[C@H]1CCN[C@@]1(C)CO2)c1ccccc1; system = PBS; conditions = 2 h, pH 7.4; measurement = solubility; result = 273 µM
